Measurements collected from several papers.
Compare with care: the assays were run in different laboratories. Several values in a cell are separate wells, animals, samples, runs or records.
FER: Tyrosine-protein kinase Fer (FER, Homo sapiens, UniProt P16591)
Chain of UniProt P16591 (whole entry, looked up): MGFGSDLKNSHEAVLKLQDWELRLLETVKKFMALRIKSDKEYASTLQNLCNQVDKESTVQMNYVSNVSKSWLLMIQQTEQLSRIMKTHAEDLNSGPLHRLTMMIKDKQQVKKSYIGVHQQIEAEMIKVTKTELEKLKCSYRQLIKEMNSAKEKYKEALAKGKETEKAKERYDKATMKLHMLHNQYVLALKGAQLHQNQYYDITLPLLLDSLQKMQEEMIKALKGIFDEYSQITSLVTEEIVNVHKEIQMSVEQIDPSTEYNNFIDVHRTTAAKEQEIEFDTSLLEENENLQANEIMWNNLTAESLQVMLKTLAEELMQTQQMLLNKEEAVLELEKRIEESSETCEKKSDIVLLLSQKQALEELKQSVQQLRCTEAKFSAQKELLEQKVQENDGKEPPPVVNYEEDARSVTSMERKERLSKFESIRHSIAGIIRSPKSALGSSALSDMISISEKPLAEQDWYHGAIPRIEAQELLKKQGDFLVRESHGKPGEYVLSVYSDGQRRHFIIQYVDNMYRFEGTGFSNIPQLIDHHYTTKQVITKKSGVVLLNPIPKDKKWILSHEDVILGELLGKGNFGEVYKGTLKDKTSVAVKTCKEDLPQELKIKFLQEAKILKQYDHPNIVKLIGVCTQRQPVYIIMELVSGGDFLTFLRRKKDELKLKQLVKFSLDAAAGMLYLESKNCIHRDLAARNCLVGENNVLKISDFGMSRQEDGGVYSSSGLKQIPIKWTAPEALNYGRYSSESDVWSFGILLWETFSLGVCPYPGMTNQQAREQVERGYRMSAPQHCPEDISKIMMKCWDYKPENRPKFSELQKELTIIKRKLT
SLC6A19: Sodium-dependent neutral amino acid transporter B(0)AT1 (SLC6A19, Homo sapiens, UniProt Q695T7)
Chain of UniProt Q695T7 (whole entry, looked up): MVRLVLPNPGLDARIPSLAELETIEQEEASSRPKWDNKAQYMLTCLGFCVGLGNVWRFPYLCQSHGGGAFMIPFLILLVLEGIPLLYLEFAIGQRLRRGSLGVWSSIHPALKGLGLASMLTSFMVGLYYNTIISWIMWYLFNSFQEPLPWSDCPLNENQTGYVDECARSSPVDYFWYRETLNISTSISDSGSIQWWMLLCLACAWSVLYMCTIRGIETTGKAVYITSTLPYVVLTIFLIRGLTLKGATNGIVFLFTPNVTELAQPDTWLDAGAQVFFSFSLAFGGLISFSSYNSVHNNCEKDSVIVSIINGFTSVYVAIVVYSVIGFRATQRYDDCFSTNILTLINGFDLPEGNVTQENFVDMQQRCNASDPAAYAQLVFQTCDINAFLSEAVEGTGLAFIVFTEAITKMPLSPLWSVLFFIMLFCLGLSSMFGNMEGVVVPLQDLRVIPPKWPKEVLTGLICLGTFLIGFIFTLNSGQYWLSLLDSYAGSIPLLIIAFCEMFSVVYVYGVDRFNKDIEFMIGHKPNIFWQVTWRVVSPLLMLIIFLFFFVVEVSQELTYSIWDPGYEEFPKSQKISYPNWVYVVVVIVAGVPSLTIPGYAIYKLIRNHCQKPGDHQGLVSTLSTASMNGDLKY
gag-pol integrase: Gag-Pol polyprotein, integrase (gag-pol, Human immunodeficiency virus type 1 group M subtype B, UniProt P04585)
MKNK1: MAP kinase-interacting serine/threonine-protein kinase 1 (MKNK1, Homo sapiens, UniProt Q9BUB5)
Chain of UniProt P05164 (whole entry, looked up): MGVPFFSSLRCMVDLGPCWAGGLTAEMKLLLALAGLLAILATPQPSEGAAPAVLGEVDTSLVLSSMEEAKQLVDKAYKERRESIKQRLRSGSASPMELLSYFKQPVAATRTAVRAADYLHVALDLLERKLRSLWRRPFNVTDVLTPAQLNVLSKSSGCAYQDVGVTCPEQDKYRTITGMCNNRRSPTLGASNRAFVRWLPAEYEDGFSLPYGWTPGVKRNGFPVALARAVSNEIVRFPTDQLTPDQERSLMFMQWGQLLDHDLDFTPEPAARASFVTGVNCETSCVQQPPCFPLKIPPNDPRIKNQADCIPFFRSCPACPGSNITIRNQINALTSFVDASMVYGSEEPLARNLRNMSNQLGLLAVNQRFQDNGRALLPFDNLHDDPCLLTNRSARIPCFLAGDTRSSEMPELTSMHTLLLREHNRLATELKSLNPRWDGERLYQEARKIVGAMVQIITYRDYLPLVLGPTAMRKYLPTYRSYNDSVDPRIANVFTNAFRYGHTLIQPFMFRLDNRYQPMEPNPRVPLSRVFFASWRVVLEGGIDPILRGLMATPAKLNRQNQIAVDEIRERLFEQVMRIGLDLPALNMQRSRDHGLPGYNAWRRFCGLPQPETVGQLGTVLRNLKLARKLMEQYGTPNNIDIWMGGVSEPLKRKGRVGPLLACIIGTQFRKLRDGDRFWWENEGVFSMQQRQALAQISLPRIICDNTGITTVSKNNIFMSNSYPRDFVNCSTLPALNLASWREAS
Chain of UniProt Q9BUB5 (whole entry, looked up): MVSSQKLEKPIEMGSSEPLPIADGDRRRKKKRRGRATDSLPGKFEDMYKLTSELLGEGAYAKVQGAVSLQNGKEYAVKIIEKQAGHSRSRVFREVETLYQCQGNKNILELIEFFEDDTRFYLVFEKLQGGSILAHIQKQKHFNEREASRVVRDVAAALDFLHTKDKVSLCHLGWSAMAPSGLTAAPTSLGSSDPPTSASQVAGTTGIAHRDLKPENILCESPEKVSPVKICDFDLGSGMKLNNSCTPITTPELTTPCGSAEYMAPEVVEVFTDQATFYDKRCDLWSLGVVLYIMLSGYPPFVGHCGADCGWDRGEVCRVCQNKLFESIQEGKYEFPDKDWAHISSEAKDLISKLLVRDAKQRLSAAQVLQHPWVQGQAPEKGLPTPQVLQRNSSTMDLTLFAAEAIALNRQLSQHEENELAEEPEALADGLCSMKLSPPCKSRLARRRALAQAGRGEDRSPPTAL
Chain of UniProt Q8NE63 (whole entry, looked up): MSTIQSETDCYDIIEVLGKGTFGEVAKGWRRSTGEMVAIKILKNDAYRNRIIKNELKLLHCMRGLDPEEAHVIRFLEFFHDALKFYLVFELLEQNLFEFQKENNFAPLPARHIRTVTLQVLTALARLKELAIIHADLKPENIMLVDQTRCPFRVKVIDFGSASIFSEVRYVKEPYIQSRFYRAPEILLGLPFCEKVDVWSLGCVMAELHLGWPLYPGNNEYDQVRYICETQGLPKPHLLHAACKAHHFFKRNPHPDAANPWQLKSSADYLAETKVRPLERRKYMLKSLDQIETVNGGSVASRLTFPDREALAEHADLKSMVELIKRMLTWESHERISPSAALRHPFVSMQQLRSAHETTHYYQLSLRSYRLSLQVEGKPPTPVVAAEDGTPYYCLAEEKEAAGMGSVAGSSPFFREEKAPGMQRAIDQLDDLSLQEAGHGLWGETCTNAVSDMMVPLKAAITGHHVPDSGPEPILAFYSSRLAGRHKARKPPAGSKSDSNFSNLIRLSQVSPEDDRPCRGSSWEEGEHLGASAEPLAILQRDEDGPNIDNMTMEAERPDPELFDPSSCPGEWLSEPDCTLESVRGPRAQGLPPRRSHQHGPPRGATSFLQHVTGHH
Chain of UniProt P45983 (whole entry, looked up): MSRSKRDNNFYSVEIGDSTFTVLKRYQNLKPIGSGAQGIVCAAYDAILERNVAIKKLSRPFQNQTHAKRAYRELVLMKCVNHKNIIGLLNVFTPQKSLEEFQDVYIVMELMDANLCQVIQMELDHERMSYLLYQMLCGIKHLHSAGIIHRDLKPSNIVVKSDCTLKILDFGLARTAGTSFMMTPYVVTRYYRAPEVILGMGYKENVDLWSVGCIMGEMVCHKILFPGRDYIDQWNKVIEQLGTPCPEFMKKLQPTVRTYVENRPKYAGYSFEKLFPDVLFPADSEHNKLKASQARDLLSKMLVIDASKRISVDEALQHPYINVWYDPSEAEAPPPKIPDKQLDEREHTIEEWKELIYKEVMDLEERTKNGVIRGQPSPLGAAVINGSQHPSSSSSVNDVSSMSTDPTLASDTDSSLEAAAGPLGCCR
Chain of UniProt P25098 (whole entry, looked up): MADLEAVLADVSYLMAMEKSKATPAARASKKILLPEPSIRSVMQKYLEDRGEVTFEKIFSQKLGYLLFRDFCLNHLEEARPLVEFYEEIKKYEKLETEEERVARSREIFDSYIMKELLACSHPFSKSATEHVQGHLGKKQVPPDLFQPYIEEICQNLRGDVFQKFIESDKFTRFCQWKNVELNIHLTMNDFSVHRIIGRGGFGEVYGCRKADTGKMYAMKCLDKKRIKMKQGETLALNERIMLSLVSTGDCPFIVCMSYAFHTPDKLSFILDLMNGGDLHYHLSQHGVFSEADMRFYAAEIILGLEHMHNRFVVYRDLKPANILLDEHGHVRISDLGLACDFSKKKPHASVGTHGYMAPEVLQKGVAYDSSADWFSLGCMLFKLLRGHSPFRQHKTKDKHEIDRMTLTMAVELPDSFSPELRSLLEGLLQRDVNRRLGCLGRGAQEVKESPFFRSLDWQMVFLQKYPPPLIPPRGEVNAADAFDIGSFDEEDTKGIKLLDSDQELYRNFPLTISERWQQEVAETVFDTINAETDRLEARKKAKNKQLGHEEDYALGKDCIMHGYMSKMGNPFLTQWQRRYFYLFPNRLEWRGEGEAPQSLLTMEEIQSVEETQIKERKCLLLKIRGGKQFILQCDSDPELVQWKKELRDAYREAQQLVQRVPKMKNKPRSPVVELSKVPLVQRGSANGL
Chain of UniProt Q9HAZ1 (whole entry, looked up): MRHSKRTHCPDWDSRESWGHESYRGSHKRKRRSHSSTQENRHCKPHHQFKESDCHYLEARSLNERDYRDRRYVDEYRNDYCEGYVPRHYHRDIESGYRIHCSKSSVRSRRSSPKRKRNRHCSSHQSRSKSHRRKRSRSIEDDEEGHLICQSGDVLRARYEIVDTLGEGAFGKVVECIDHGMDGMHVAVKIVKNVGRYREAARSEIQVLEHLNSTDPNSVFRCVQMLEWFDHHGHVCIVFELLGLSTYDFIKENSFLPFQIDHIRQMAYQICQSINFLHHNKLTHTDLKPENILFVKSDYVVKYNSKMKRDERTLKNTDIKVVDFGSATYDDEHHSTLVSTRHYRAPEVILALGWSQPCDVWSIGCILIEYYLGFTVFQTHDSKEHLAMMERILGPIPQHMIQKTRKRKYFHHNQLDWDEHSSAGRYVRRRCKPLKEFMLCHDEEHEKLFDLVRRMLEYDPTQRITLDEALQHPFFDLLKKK

SMILES	target	assay	system	conditions	scale	remaining activity
COc1cc(F)ccc1-c1ncnc(Nc2cccc(C[S@](C)(=N)=O)c2)n1	FER	kinase activity	–	10 µM, together with: 10 µM ATP	–	102%
Cc1cc(Cl)cc(C)c1OCC(=O)NC(C)C	SLC6A19	FLIPR membrane potential	CHO-BC	30 µM, unit not given	reference: uninhibited	0.932 and 0.934 and 0.925 and 0.897
Cc1cc(NC(=O)c2cccc(NC(=O)/C=C/CN(C)C)c2)ccc1Nc1nccc(-c2cccnc2)n1	MAPK8 (Homo sapiens, UniProt P45983)	enzyme activity, inhibitor	–	0.5487 µM, 6 h, unit not given, together with: GSH 10 mM pre-incubation	reference: vehicle	0.575
COc1ccc(-c2cn(C)c3nc(Cl)ccc23)cc1	gag-pol integrase	strand transfer	HIV-1	10 µM	–	44%
COc1cc(N2CCN(C)CC2)ccc1Nc1nc(N)n(C(=S)NCc2c(Cl)cccc2Cl)n1	MKNK1	enzyme activity	–	10 µM	reference: control	0.25%
COc1ccc(-c2ccc3c(-c4ccc(F)cc4F)cn(C)c3n2)cc1	gag-pol integrase	strand transfer	HIV-1	10 µM	–	28.4%
Cc1ccc(C[C@H](NC(=O)OC(C)(C)C)C(=O)NC/C=C/S(=O)(=O)c2ccccc2)cc1	Cathepsin B (CTSB, Homo sapiens, UniProt P07858)	inhibitor	–	5 µM, 60 min, together with: Z-Arg-Arg-pNA	reference: uninhibited control	47%
C[C@H]1[C@H](OC(=O)CCC(=O)O)O[C@@H]2O[C@@]3(C)CC[C@H]4[C@H](C)CC[C@@H]1[C@@]24OO3	Non-structural polyprotein pORF1, RNA-dependent RNA polymerase (Hepatitis E virus genotype 1, UniProt P33424)	polymerase activity, inhibitor, colorimetric	–	39 µM	reference: untreated	61.1%
C=CC(=O)N1CCC[C@@H](n2nc(-c3ccc(Oc4ccccc4)cc3)c3c(N)ncnc32)C1	FER	–	–	10 µM	–	3.63%
O=C1NC(=O)/C(=C/c2ccc(-c3ccc(F)cc3O)o2)S1	MKNK1	enzyme activity	–	10 µM	–	48%
Cc1nnc(C(=O)NC(C)(C)c2nc(C(=O)NCc3ccc(F)cc3)c(O)c(=O)n2C)o1	gag-pol integrase	strand transfer	HIV-1	10 µM	–	17.9%
CC(C)Oc1cc(N2CCN(C)CC2)ccc1Nc1nc(N)n(C(=O)NCc2ccccc2S(=O)(=O)C(C)C)n1	HIPK4 (Homo sapiens, UniProt Q8NE63)	enzyme activity	–	10 µM	reference: control	34%
Cc1cc(Nc2cc(N3CCN(C)CC3)nc(Sc3ccc(NC(=O)C4CC4)cc3)n2)[nH]n1	RPS6KA5 (Homo sapiens, UniProt O75582)	kinase activity, KinaseProfiler	–	0.03 µM, species human	reference: control	95%
COc1ccc(F)cc1C(=O)NCc1ccc(-c2nn([C@@H](C)C(F)(F)F)c(N)c2C(N)=O)cc1	PEAK1 (Homo sapiens, UniProt Q9H792)	kinase activity, inhibitor, HotSpot radiometric	–	100 nM, together with: ATP 10 µM	–	89%
O=C(NC1CCC1)c1ccc2nc(-c3cccc(NS(=O)(=O)NCCN4CCCCC4)c3)cn2c1	NEK3 (Homo sapiens, UniProt P51956)	enzyme activity	–	10 µM	–	100%
CNc1ncc2c(/C=C/C(=O)N3CCC(OC)CC3)nn(Cc3cccc(C(F)(F)F)c3)c2n1	CLK4 (Homo sapiens, UniProt Q9HAZ1)	kinase activity, inhibitor	–	1 µM	reference: untreated control	98%
Cc1cc(OCC(=O)NC(C)C)cc(C)c1Cl	SLC6A19	FLIPR membrane potential	CHO-BC	concentration not given	reference: 100 µM cinromide set to 0	37.9%
COc1cc(Nc2ncc3c(n2)-c2ccc(Cl)cc2C(c2c(F)cccc2OC)=NC3)ccc1C(=O)O	DAPK3	kinase activity	–	1 µM	–	97%
Cc1ccc(NC(=O)c2ccc(C)c(C(F)(F)F)c2)cc1C#Cc1nn(C2CCC(O)CC2)c2ncnc(N)c12 (stereo not shown)	MLCK, human	–	–	10 µM, together with: 10 µM ATP	–	62%
COc1cc(-c2cncc3c2CN(C)Cc2cc(N4CCNCC4)ccc2-3)cc(OC)c1OC	GRK2 (Homo sapiens, UniProt P25098)	kinase activity	–	1 µM, human enzyme, together with: ATP 10 µM	reference: DMSO control	92%
COc1ccc(-c2ccc3c(-c4ccccc4)cn(C)c3n2)cc1	gag-pol integrase	strand transfer	HIV-1	10 µM	–	60.7%
Cc1cccc(C)c1C(=O)OCC(=O)[C@H](CCCCN)NC(=O)[C@H](CCCNC(=N)N)NC(=O)OCc1ccccc1	Procathepsin L (Mus musculus, UniProt P06797)	inhibitor	–	0.01 µM, room temperature, together with: AMC substrate	–	100%
O=C(O)c1ccc(Nc2ncc3c(n2)-c2ccc(Cl)cc2C(c2c(F)cccc2F)=NC3)cc1	GRK5(h)	kinase activity	–	1 µM	–	109%
Cc1cccc(-c2cn(C)c3nc(Cl)ccc23)c1	gag-pol integrase	strand transfer	HIV-1	10 µM	–	80.6%
NC/C(=C\F)COc1cccc(Cn2c(=S)[nH]c(=O)c3[nH]cnc32)c1	Myeloperoxidase (MPO, Homo sapiens, UniProt P05164)	enzyme activity, inhibitor, dilution jump	–	concentration not given	reference: DMSO	2.53% and 1.1% and 6.25%

Some of these lines once more:
SMILES	target	assay	system	conditions	scale	remaining activity
COc1ccc(-c2ccc3c(-c4ccccc4)cn(C)c3n2)cc1	gag-pol integrase	strand transfer	HIV-1	10 µM	–	60.7%
Cc1cccc(C)c1C(=O)OCC(=O)[C@H](CCCCN)NC(=O)[C@H](CCCNC(=N)N)NC(=O)OCc1ccccc1	Procathepsin L (Mus musculus, UniProt P06797)	inhibitor	–	0.01 µM, room temperature, together with: AMC substrate	–	100%
